Assay results collected from several papers.
Every numbered part comes from another study and shows a few of its results, in no order. Changes are numbered by the printed parent chain.

Sample 1
Target: RING finger protein unkempt homolog, zinc fingers 1-6, GST-SBP tag (UNK, Homo sapiens, UniProt Q9C0B0, residues 30-357)
Technique: RNA Bind-n-Seq
Molecule type: RNA
Sample: in vitro
Tested at: not given
Setting: RNA with constant flanks, human-mouse chimeric sites, ends assumed
Relative to: input RNA pool
Direction: higher = stronger binding
Measurement: bound/input enrichment
Constant ends, left off below: GGGAGUUCUACAGUCCGACGAUC … CAACAGAGGAUUGAGCAUCA
Construct (chain): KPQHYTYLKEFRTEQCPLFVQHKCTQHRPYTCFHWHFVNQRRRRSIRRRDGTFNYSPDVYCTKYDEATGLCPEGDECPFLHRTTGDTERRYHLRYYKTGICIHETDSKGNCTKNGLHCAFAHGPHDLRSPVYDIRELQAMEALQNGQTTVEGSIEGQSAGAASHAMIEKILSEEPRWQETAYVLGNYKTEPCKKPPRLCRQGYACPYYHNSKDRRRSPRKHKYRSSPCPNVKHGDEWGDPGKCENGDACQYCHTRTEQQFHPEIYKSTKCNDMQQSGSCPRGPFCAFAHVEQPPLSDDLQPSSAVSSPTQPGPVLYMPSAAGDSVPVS
ACAGUUAUACACUGUUGGUUUGUAUUUAUAUAUUCUUGUAGUGUCUGCUUGCCUGUGACUUCUGGUAAAAUAAAAUAAGCCUUUGAAAAUAUUUUAGCAUGGUAUUUAACAUUUUCUAAA: 1.21 ratio
GGCCUGGGACCGUCCUGGGCUAGUACAAAUAGCGGCAGUGGAGGCUCGAGAGGAAAGUUUGUUAGUGGAGGCAGUGGUAGAGGCCGUAUGUACGCUCCCUUUACUCGUAAAAAUCCUUCU: 0.166 ratio
GAUCCACAGUGGUCUGAGGAGCAACUCAUUGCUGCAAAAUUCUGUUUUGCUGGCCUUCUUAUAGGCCAGACUGAAGUGGACAUCAUGAGUCAUGCCACACAGGCUAUUUUUGAAAUUCUG: 0.128 ratio
AACUUCGUGCAUCGGUUUCCCUUUGUAGCUGUUUCAAUUGGCUUCCUUGUGAAUAAAGAGAUGGAGUUUGGAAUUGUGUACAGCUGUGUGGAAGGCAAGAUGUACACUGCCAGAAAAGGG: 0.303 ratio
GGGACUGAUUCAUCCCAAGGACAGGCCACCCCAUUUGGUGUUUGGAAUGAUGACAGUAUGGAAGGGCCUAGUCAAAAUGUUGAAGCUGAGUCAAUUCAAGAUAAUGCGAGUAUGGAAGAG: 0.289 ratio
AUGGAAAAGGAUUCUCUGCCCCGCUUUGUGCGCUCUGAAUUUUAUAAGGAGCUAAUCAAGUAGUCAUCUGGUCAGGCUUCCAAAAGUUCCUGUGAGUGUUGAGUUACAUCCUUUGUAGCA: 0.333 ratio
GGAAGUACAAUGAUGGAGAUUGAUGGUGACAAAGGCAAACAAGGCGGGCCCACCUACUACAUAGAUACCAAUGCCCUCCGCGUGCCCAGGGAGAACAUGGAGGCCAUCUCACCACUCAAG: 0.273 ratio
GGCUGCUGGUGACUGUCCUGGAGUGGCUGGAGUUCCCGCCGGAGCGCGCGCAGGUUAAUUUUAGAAAAUGCCAAGUAGGAAGUUUGUCGAUGGUGAAGUGGUCAGAGGCCGAUGGCCUGG: 2.84 ratio
UCUUUAAAAAAAAAAUUACCUUUUCUGACAGUGCUUUAUGGAGUAAAGAUCCACGUUCAAGCUCAAAGAGCAAAGGCUUUGCACGGAGCUCAAACAUCUGAUGAAGAUUUUUGAGACAGA: 0.271 ratio
GUGUCCUGCUUUCAACUUAAAUCACUGCAUUUUUACUACUGUUCUGUGAGCAUCAGGACUGUAGCGCUGUGUCACCACAUGAGAGUUCAGAAGCAGCCUUUCUGUGGAGGGUGGGAAUGA: 0.209 ratio
UUUCUAUUGCAGCAAACGAUGCUAAGAAUUAAGGAUCCUAAGAAGUCCCUGGAUUUUUAUACGAGGGUUCUUGGACUGACGCUAAUCCAGAAGCUUGACUUCCCUGCUAUGAAGUUCUCG: 0.088 ratio

Sample 2
Target: Histone acetyltransferase KAT6A, winged helix 2, GST fusion (KAT6A, Homo sapiens, UniProt Q92794, residues 85-181)
Technique: protein binding microarray
Molecule type: double-stranded DNA, one strand shown
Sample: in vitro
Tested at: not given
Setting: 8-mer, flanks averaged, mean of 2 arrays, mostly near background
Relative to: not given
Direction: higher = stronger binding
Measurement: E-score
Target sequence (chain): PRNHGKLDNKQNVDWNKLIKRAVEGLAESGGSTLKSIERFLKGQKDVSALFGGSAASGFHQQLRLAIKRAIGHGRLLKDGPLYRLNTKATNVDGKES
ATTGGGGC: -0.0704
GGTGAAAA: 0.108
CACGTGCC: -0.0181
CTGCCCCA: 0.194
CGTGTTTC: -0.0517
CCAGTGAA: -0.0804
AATAAGCA: 0.0746
ATGGTACG: -0.0773
AGCGAATG: -0.00155
CGGCTGAG: 0.0711
CCGAAACA: -0.0291
AAACACGT: -0.237
AATGTCTG: 0.0166
CACAGAGG: 0.067
TCATCCCA: -0.0329
GCACTGGC: 0.115
GGGGTCTA: -0.0186
AACTGCGC: -0.0298
CATGGGCG: 0.176
AGCAGACC: 0.183
CATGGAGA: -0.00409
CGCCACAA: -0.00524
ATGCCTAG: -0.163
AATGTTCT: -0.225
ACGTTGGA: -0.122

Sample 3
Target: CCNE2, cyclin fold, Cln2 fusion (human)
Technique: yeast growth competition, sequencing
Sample: yeast
Setting: weak parent motif
Relative to: not given
Direction: higher = stronger binding
Measurement: normalised enrichment score
Starting sequence: PKN2 docking peptide (human); VSAVQKLDFSDTM
VSAVQKLDFSRTM [D11R]: 0.489
SSAVQKLDFSDTM [V1S]: 0.398
VSAVQRLDFSDTM [K6R]: 0.117
VSAVQKLDGSDTM [F9G]: 0.249
VSAVQKLDFSDTY [M13Y]: 0.37
VSGVQKLDFSDTM [A3G]: -0.497
MSAVQKLDFSDTM [V1M]: -0.254
VSAVQKLDMSDTM [F9M]: -0.44
VSAVQKLDTSDTM [F9T]: -0.483
VSAVQKLHFSDTM [D8H]: 0.293
VSAVQGLDFSDTM [K6G]: -0.166
VSAVQKLDFNDTM [S10N]: -0.295
VSAVQKLDFRDTM [S10R]: 0.458
VSAVQKLDSSDTM [F9S]: 0.436
VSAVQKKDFSDTM [L7K]: -0.137
VDAVQKLDFSDTM [S2D]: -0.665
VSAVQKLDFSMTM [D11M]: -0.102
VSAVQKCDFSDTM [L7C]: -0.329
VSAVQKLWFSDTM [D8W]: 0.561
VSAVQKLDFTDTM [S10T]: -0.147
VSAVQKLDFHDTM [S10H]: 0.146
VSAVQKLDFSNTM [D11N]: 0.279
VSAAQKLDFSDTM [V4A]: -0.128
VSAVQKLDFSDAM [T12A]: 0.161
VSAVQKLDFSDYM [T12Y]: 0.173

Sample 4
Target: RNA binding protein fox-1 homolog 2, RRM domain, GST-SBP tag (RBFOX2, Homo sapiens, UniProt O43251-10, residues 100-194)
Technique: RNA Bind-n-Seq
Molecule type: RNA
Sample: in vitro
Tested at: 365 nM
Setting: natural RNA segment, single round, ends assumed
Relative to: no-protein control
Direction: higher = stronger binding
Measurement: RBNS enrichment (R)
Constant ends, left off below: GGGAGUUCUACAGUCCGACGAUC … UGGAAUUCUCGGGUGCCAA
Construct (chain): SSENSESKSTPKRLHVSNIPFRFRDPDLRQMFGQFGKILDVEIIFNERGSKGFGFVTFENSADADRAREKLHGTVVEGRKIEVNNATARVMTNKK
GCAAAGGGCCUGUCCCCGGGCAGAAGAUGAAGCCCCUACCCGUGGACUGUGUGGUUCCAUCUCUGGCCAGGCCACUUCCAGCCAGCAAGGACACCAGAGGCUGCCUUAGC: 0.223
AUGUAAGACAUUUGAUCCCCUGUUGACUUACAAAAUUGUAAAUGGUAAAGCAGGCUAGAGUCUUAACCAUGGUGCUAUUCACUGGGUUUACUUGUUUAACACAAGUUUAU: 0.389
UACCCUGCGCGCAUCUAUGUCUUGUUUGGAAUAUUGUCUCUUCAACCCCCUGUUCAUGUCCUUCUCACUCAUGAUCGAUGUCUUGUCUGUGCACUGUCUCUAACCCAAAU: 2.71
CCAUCAAGAACCAAGUUCACCUUCAGCUCCUGUGGCCCCGCCCCCAGGCUGGAGUCAGAAAUGUUUCCCAAAGAGUGAGUCUUUUGCUUUUGGCAAAACGCUACUUAAUC: 0.181
CUUUUUACUUUUUUCCCCUAACUUUAGCAAUGUAGUAUCUUGAGCCAUUAAUUUUUGGGUUUUUUUAAAAUCCAGAAGGUAUAUAGAAACCUUUUCAGAUUUUUCAUCUG: 0.631
UGUUAGUGGUAGCGUGGCUCACUCCACUUGGAGGUGGCGGCCGUCUGACCGUGUGUUACUGCUUUGCCGACGGGGCCUCCCGGCCCUGAUGCGUGUACACUCUGCGGGCU: 0.609
AAAUGUGUUUAUUCUCUACAAUAUAUAAAAACAUAUUGGACUACUAUUACAUAAUUAAAUUACUCUUUAUUUGCUUAAAGAGGGUGAUUAUUUUUUCACUUACCGUUCCA: 0.356
UGAAAGUGGCUUUUGACAGCUUCUCUCUUUUUGGUGUAAUGUUUUACAUGUCCUGUGUCCUGGGGACUAAUGUGUUAAUUGCCUUAAAUAAAUUAAUAGACUCCAAGUCC: 0.317
GGCCUCCGUGAGCAUCUUUGUAGCUAGCAAUGAGGAAGUGCAGGUGUCUACAGGCCAUCACGUGGGGAGGCGCACCAGGCGACAGAGGAUGUGGUGGCCUUCCUCCUAGG: 1.83
GGCUUCGCAUCAAAAGCCUGACGUUCCUGUCCCUCUUAUAGGGGGAGCUUUGGACACAGGACCAGUUUGAUAAAGGGCCAGGUAAGGGUUUCCACUCUGCACAUUGUAGA: 0.562
CAGCACCUGAUGCCUUUUGUACUGAGGUAUGUAACUUUCUCCUUAUUUGACAAGUAGAAGUUAACUUACUUGUCAGGGAGGGCAGACGUUUUUUUGUUCUGUUUCGUUUU: 0.295
GCAGCAGGGAGCAAAAUCUCCUUUAACAACCAAGCAGUUCCUCAUUCACAUCAACAGAGCGAGGCUGUGAUAACUUAGGAGGCAGCAAUCCUAAUAGUCCUUCAGUGCAU: 0.522

For quick reference, copied from above (sample 3):
MSAVQKLDFSDTM [V1M]: -0.254
VSAVQGLDFSDTM [K6G]: -0.166
VSAVQKLDFSRTM [D11R]: 0.489
VSAVQKLDFSMTM [D11M]: -0.102
VDAVQKLDFSDTM [S2D]: -0.665
VSAVQKLDMSDTM [F9M]: -0.44
VSAVQKLDTSDTM [F9T]: -0.483
VSAVQKLDFHDTM [S10H]: 0.146
VSAVQKLWFSDTM [D8W]: 0.561
